Results collected from several papers.
Lines come from different studies, so protocols differ. Several values in a cell are separate wells, animals, samples, runs or records.
Target: Homeodomain-interacting protein kinase 1 (HIPK1, Homo sapiens, UniProt Q86Z02)

With Nc1ncc(-c2cc(-c3cnn(CC(F)(F)F)c3)ncc2F)nc1C(=O)NC1CNCC(F)C1 (stereo not drawn) the remaining activity was 106% (enzyme activity; 1 µM; baseline: DMSO control).
For C=CC(=O)Nc1cccc(-c2cnc3[nH]cc(C(=O)NC(C)(C)C)c3n2)c1, the inhibition was 45% (enzyme activity, inhibitor; 0.1 µM).
CN1CCN(Cc2ccc(-c3ccc(CO[C@H]4CCC[C@@H]4NC(=O)c4cc(-c5cnn(C)c5)cnc4N)cc3)cc2)CC1 gave an inhibition of 2% (enzyme activity, inhibitor; 0.1 µM).
The inhibition of NC(=O)C[C@H]1CCc2sc3ncnc(O[C@H]4CC[C@H](N5CCOCC5)CC4)c3c21 is reported as 3% (enzyme activity, inhibitor; 10 µM).
For CNC(=O)C[C@H](Cc1ccc(C#N)cc1)NC(=O)c1cc(-c2ccc(CN[C@H](C)c3ccc(C)cc3)o2)ccc1Cl, “activity vs control” read 107% (enzyme activity, inhibitor; 1 µM).
For O=C=[N][Ru-4]123([n]4c5ccc(O)cc5c5c6c(c7cc(F)c[n+]1c7c54)C(=O)NC6=O)[S+]1CC[S+]2CC[S+]3CC1 (stereo not drawn), the remaining activity was 85% (enzyme activity; 100 nM, human enzyme, added: 10 µM ATP; baseline: untreated).
Cc1cnc2nc1Nc1cccc(c1)COC/C=C/COCc1cc(ccc1OCCN1CCOCC1)N2 gave a remaining binding of 85% (binding; 0.1 µM).
The remaining activity of COc1ccc(NC(=O)Nc2ccc3c(c2)C(=O)N(C(C)CO)CC(C)C(CN(C)Cc2ccc4c(c2)OCO4)O3)cc1 (stereo not drawn) is reported as 95% (kinase activity, KinaseProfiler; 0.03 µM, species human; baseline: control).
With Cc1ccc(-c2c(/C=C(\C#N)C(=O)NC(C)C)n(CCCO)c3ncnc(N)c23)cc1 the remaining binding was 100% (cell-free assay, competition with immobilised ligand; 1 µM).
The remaining binding of C=CC(=O)N1CCc2ccc(-n3c(=O)ccc4cnc5ccc(-c6cnn(C)c6)cc5c43)cc21 is reported as 89% (KINOMEscan; 1 µM; baseline: DMSO control).
With COCC12C(=O)NC3C4(C(OC)CC1O)C1CC5(O)C(OC)C(O)C(OC(C)=O)(C1C5OC(=O)c1ccccc1)C3(O)C(OC)C24 (stereo not drawn) the remaining activity was 80% and 100% (kinase activity, inhibitor, ProQinase kinase profiling; 25 µM; baseline: control).
With COc1c(Cl)cccc1Nc1c(-c2ccncc2C#C[C@@]2(C)CCCN2C(=O)/C=C/CN(C)C)[nH]c2c1C(=O)NCC2 the remaining binding was 97% (binding, competition with immobilised ligand; 3 µM).
CN1CC[C@@H](COc2cnc(C#N)cc2-c2ccn3nc(NC(=O)C4CC4)cc3c2)C1 gave an inhibition of 4% (enzyme activity, inhibitor; 1 µM).
For Cc1cccc(O[C@H]2CCC[C@@H](C(C)CNCc3ccncc3)C2)c1 (relative stereo), the inhibition was -6% (enzyme activity, inhibitor; 10 µM).
With CCn1cc(C(=O)O)c(=O)c2c(N)c(F)c(NC3CCCCC3)cc21 the inhibition was 18.3% (kinase activity; 0.1 µM, added: ATP at Km).

Some of these lines once more:
The remaining binding of C=CC(=O)N1CCc2ccc(-n3c(=O)ccc4cnc5ccc(-c6cnn(C)c6)cc5c43)cc21 is reported as 89% (KINOMEscan; 1 µM; baseline: DMSO control).
